Measurements from different studies.
Compare with care: the assays were run in different laboratories. Numbers after ± are the reported error.

The SILAC ratio of CC(C)CC(O)(CC(C)C)c1cn(C(=O)N2CCCC2)nn1 is reported as 4.07 ± 0.3 (mouse T-cells; N-terminal labeled proteins, N-terminal enrichment proteomics, item: S100A4; 1 nM, 6 h; relative to: DMSO).
CN1c2ccc(OC(=O)Nc3ccncc3)cc2C2(C)CCOC12 (stereo not drawn): “EV size distribution” “no effect” (donor cells; tunable resistive pulse sensing; 20 µM; relative to: DMSO).
CCCCCCCCCCCCCCCC[P+](c1ccccc1)(c1ccccc1)c1ccccc1 gave a GI50 of 0.268 µM (T47D; cell growth or viability, MTT; 72 h).
With N=C(N)NCCC[C@H](N)C(=O)NCC(=O)N[C@@H](CCC(=O)O)C(=O)O the cell perimeter was 96 ± 17 µm (NIH 3T3 fibroblasts; peptide-functionalised PEG-glass; concentration not given, 4 h).
Under “number of inhibited transcripts”, CN1C(=O)C2(Cc3ccc(CC45SSC(CO)(C(=O)N4C)N(C)C5=O)cc3)SSC1(CO)C(=O)N2C (racemic) is recorded as 113 (MCF7; microarray; 600 nM, fold-change cutoff 2.0, together with: deferoxamine).
Under “lowest effective concentration”, N=C(N)Nc1ccc(-c2nc3ccc(-c4ccc5nc(-c6ccc(NC(=N)N)cc6)[nH]c5c4)cc3[nH]2)cc1 is recorded as 10 µM (sample A patient fibroblasts; MBNL1 exon 5 splicing rescue).
The GI50 of CCCc1cc(OC)c2c(c1OC)OCO2 is reported as over 250 µM (T47D; cell growth or viability; 72 h).
The CC50 of CC/C=C\C/C=C\C/C=C\C/C=C\C/C=C\C/C=C\CCC(=O)Nc1ccn(C2OC(CO)C(O)C2(F)F)c(=O)n1 (stereo not drawn) is reported as 74.9 µM (TK-10; NCI60 screen).
COc1cc(C)c(OC)c(OC)c1OC has a GI50 of over 250 µM (A-375; cell growth or viability, MTT; 72 h).
With Cc1cc(C)c(N2CCN(c3c(C)cc(C)cc3C)C2=[Se])c(C)c1.[Cl][Ag] the IC50 was 0.6 µM (A-375; cell growth or viability, MTT; 72 h).
For Cc1cccc(O)c1C(=O)OCC1(O)C(Nc2ccc3c(c2)Cc2ccccc2-3)C(N)C(NC(=O)N(C)C)(C(C)O)C1(C)O (stereo not drawn), the GI50 was 0.61 µM (RXF 393; cell growth or viability, SRB).
For CC(C)c1cnn2c(NCc3ccccc3)cc(N[C@@H](CO)[C@H](O)CO)nc12, the resistance factor was 10 fold (NIH-3T3 pHamdr1 (ABCB1-overexpressing); cell growth, sulforhodamine B; relative to: pHamdr1 over parental 3T3).
The IC50 of [Cl][Ag].[Se]=c1n(C2CCCCC2)ccn1C1CCCCC1 is reported as 15.6 ± 2 µM (H157 spheroids; acid phosphatase; 72 h, 3D spheroid).
With COc1cc(C)cc2c1OCO2 the GI50 was over 250 µM (A-375; cell growth or viability, MTT; 72 h).
Cc1cc(C)c(-n2ccn(-c3c(C)cc(C)cc3C)c2=[Se])c(C)c1.[Cl][Ag] has an IC50 of 0.3 µM (PSN1; cell growth or viability, MTT; 72 h).
CC[C@H](C)[C@H](NC(=O)[C@H](CCC(=O)O)NC(=O)CNC(=O)[C@@H](NC(=O)[C@H](CC(C)C)NC(=O)[C@H](CC(C)C)NC(=O)[C@H](CC(C)C)NC(=O)[C@H](CC(C)C)NC(=O)[C@H](CS)NC(=O)[C@H](CO)NC(=O)[C@H](Cc1ccccc1)NC(=O)CNC(=O)[C@H](CCCNC(=N)N)NC(=O)[C@@H]1CCCN1C(=O)[C@H](C)NC(=O)[C@H](CCSC)NC(=O)CNC(=O)CNC(=O)[C@H](Cc1ccccc1)NC(=O)[C@H](CCCCN)NC(=O)[C@H](Cc1c(C)cc(O)cc1C)NC(=O)[C@H](N)CCCNC(=N)N)[C@@H](C)O)C(=O)N[C@@H](CC(=O)O)C(=O)N[C@@H](CC(C)C)C(=O)N1CCC[C@H]1C(=O)N[C@H](C(=O)N[C@@H](CCCCN)C(=O)N[C@@H](CCCNC(=N)N)C(=O)N[C@@H](CCCNC(=N)N)C(=O)N[C@@H](C)C(N)=O)C(C)C — result for “Pearson correlation coefficient”: 0.58 (HT-22; 10 µM, 2 h, 37 °C, mitochondrial colocalisation, FITC-labelled).
The inhibition of CC1=CCC23OC2(C)CCC2C(C[N+](C)(C)C)C(=O)OC2C13.[I-] (stereo not drawn) is reported as 86.3% (DU-145; cell growth or viability, SRB; 8.3 µM).
CC(N)C(O)CCCCCCCCCCCCCCC(=O)CCCCCCCC(O)C(C)N (stereo not drawn) has a selectivity index of 2 (HCC70; cytotoxicity, resazurin; relative to: MCF-12A over HCC70).
For CCCCCCCCC[P+](c1ccccc1)(c1ccccc1)c1ccccc1, the GI50 was 0.047 µM (T47D; cell growth or viability; 72 h).
With CNC(=O)c1cc(Oc2ccc(NC(=O)c3ccc(-c4cccc(COC(=O)CCC(=O)OC5OC6OC7(C)CCC8C(C)CCC(C5C)C68OO7)c4)cn3)cc2)ccn1 (stereo not drawn) the apoptotic cells was 9.2% (Huh-7; annexin V/PI flow cytometry; 2.5 µM, 24 h).
CC[C@H](C)[C@H](NC(=O)[C@H](Cc1ccccc1)NC(=O)[C@H](CC(=O)O)NC(=O)[C@H](CCCCN)NC(=O)[C@H](C)NC(=O)[C@H](CCCCN)NC(=O)[C@H](CC(N)=O)NC(=O)[C@H](CC(C)C)NC(=O)[C@H](Cc1c[nH]c2ccccc12)NC(=O)[C@H](CCC(=O)O)NC(=O)[C@H](CCCCN)NC(=O)[C@@H](NC(=O)CNC(=O)[C@H](C)N)[C@@H](C)O)C(=O)N[C@@H](CCCCN)C(=O)N[C@@H](CCC(=O)O)C(=O)N[C@@H](CCCCN)C(=O)NCC(=O)N1CCC[C@H]1C(=O)NCC(=O)N[C@@H](CCSC)C(=O)N[C@@H](CC(C)C)C(=O)N[C@@H](CO)C(=O)N[C@@H](C)C(=O)N[C@@H](C)C(=O)N[C@@H](C)C(=O)N[C@@H](CC(N)=O)C(=O)N[C@@H](C)C(=O)N[C@@H](C)C(=O)N[C@@H](CC(C)C)C(=O)N[C@@H](CC(N)=O)C(=O)O has an EC50 of over 100 µM (HEK293 cells; intracellular calcium, FLIPR; 0.1% BSA).
The IC50 of C[C@H]1C(OCCCCCCCCC[P+](c2ccccc2)(c2ccccc2)c2ccccc2)O[C@@H]2O[C@@]3(C)CCC4[C@H](C)CCC1[C@]42OO3 (stereo partly drawn) is reported as 0.0956 µM (OVCAR-3; cell growth or viability, MTT; 72 h).
The EC150 of CS(C)(=O)=Nc1ccc(-c2ccc(-c3nc4cc(O[C@@H]5CO[C@H]6[C@@H]5OC[C@H]6O)[nH]c4cc3F)cc2)cc1 is reported as 0.45 ± 0.1 µM (L6 rat myoblasts; ACC phosphorylation, activator, ELISA; 30 min).
CCCc1cc2c(c(OC)c1OC)OCO2 has a GI50 of 116 µM (T47D; cell growth or viability, MTT; 72 h).
CCNc1cc2[o+]c3cc(NCC)c(C)cc3c(-c3ccccc3C(=O)OCCOCC[18F])c2cc1C gave an uptake of 4.6 ± 0.7% (rat cardiomyocytes; 1 min; relative to: activity).
The selectivity ratio of CCCN[C@H]1C=C[C@]2(O[C@H]([C@@H](CC)C(=O)[C@@H](C)[C@@H](O)[C@H](C)[C@@H]3O[C@@H]([C@@H](CC)C(=O)O)CC[C@@H]3C)[C@@H](C)C[C@H]2C)O[C@@]12CC[C@@](C)([C@H]1CC[C@](O)(CC)[C@H](C)O1)O2 is reported as 10.1 (HMLER CD24low/CD44high; cell viability, CellTiter-Blue; 72 h; relative to: IC50 HMLER CD24high/CD44low over CD24low/CD44high).
CC(C)C[C@H](NC(=O)[C@H](C)NC(=O)[C@H](CCCCN)NC(=O)CCNC(=S)Nc1ccc2c(c1)C(=O)OC21c2ccc(O)cc2Oc2cc(O)ccc21)C(=O)N[C@@H](CCC(=O)O)C(=O)N[C@H](C(=O)N[C@@H](CC(C)C)C(=O)N[C@@H](CCCNC(=N)N)C(=O)N[C@@H](CCCNC(=N)N)C(=O)N[C@H](C(=O)NCC(=O)N[C@@H](CC(=O)O)C(=O)NCC(=O)N[C@H](C(=O)N[C@@]1(C)CCC/C=C\CCC[C@@](C)(C(=O)N[C@H](C(=O)N[C@@H](C)C(=O)N[C@@H](Cc2ccccc2)C(N)=O)[C@@H](C)O)NC(=O)[C@H](Cc2c[nH]cn2)NC(=O)[C@H](CC(N)=O)NC(=O)[C@H](CCCNC(=N)N)NC1=O)C(C)C)C(C)C)[C@@H](C)O — result for viability: “no effect” (OPM-2; MTT; concentration not given, 24 h, together with: low-dose FasL).
COc1c(C)cc2c(c1OC)OCO2 gave a GI50 of over 250 µM (T47D; cell growth or viability, MTT; 72 h).
CC[C@H](C)[C@@H]1NC(=O)[C@H](Cc2c[nH]c3ccccc23)NC(=O)[C@H](CCCCCC(=O)NO)NC(=O)[C@H]2CCCCN2C1=O gave an H3K9 acetylation of about 6.4 fold increase (iPSC-derived neural progenitor cells; western blot; 1 µM, 18 h; relative to: vehicle).
C[C@H](NC(=O)[C@H](CCCNC(=N)N)NC(=O)[C@H](CCC(=O)O)NC(=O)[C@H](CCCNC(=N)N)NC(=O)[C@H](CCCNC(=N)N)NC(=O)[C@@H](NC(=O)[C@H](CCCNC(=N)N)NC(=O)[C@H](C)NC(=O)[C@H](CCCNC(=N)N)NC(=O)[C@H](CCC(=O)O)NC(=O)[C@@H](N)CCCNC(=N)N)[C@@H](C)O)C(=O)N[C@@H](CCCNC(=N)N)C(=O)N[C@H](C(=O)N[C@@H](CCCNC(=N)N)C(=O)N[C@@H](CCC(=O)O)C(=O)N[C@@H](CCCNC(=N)N)C(=O)N[C@@H](C)C(=O)N[C@@H](CCCNC(=N)N)C(=O)N[C@H](C(=O)N[C@@H](CCCNC(=N)N)C(=O)O)[C@@H](C)O)[C@@H](C)O — result for expression level: “increased” (A-375; RT-PCR and western blot, item: VEGF165b mRNA and protein; concentration not given).
For CC1CN1c1cc(O)c2nc(N)sc2c1 (stereo not drawn), H3K36me3 level read “no effect” (NUP98-NSD1 mouse cells; western blot; concentration not given, 8 days).
COC[C@@H](NC(C)=O)C(=O)NCc1ccc(-c2cccc(I)c2)cc1 gave a V1/2 shift of about 8.2 mV (CAD; Na+ current; 10 µM; relative to: 0.1% DMSO, hyperpolarizing).
The IC50 of CC[C@H](C)[C@H](NC(=O)CNC(=O)[C@H](C)NC(=O)[C@@H]1CCCN1C(=O)CNC(=O)[C@H](C)NC(=O)[C@H](CCC(=O)O)NC(=O)[C@H](C)NC(=O)[C@H](CC(=O)O)NC(=O)[C@H](C)NC(=O)[C@H](CCC(=O)O)NC(=O)[C@H](C)NC(=O)[C@H](CCC(=O)O)NC(=O)[C@@H]1CCCN1C(=O)[C@@H](N)CCC(=O)O)C(=O)NCC(=O)N[C@@H](C)C(=O)N[C@H](C(=O)N[C@@H](CC(C)C)C(=O)N[C@@H](CCCCN)C(=O)N[C@H](C(=O)N[C@@H](CC(C)C)C(=O)N[C@H](C(=O)N[C@H](C(=O)NCC(=O)N[C@@H](CC(C)C)C(=O)N1CCC[C@H]1C(=O)N[C@@H](C)C(=O)N[C@@H](CC(C)C)C(=O)N[C@H](C(=O)N[C@@H](CO)C(=O)N[C@@H](Cc1c[nH]c2ccccc12)C(=O)N[C@H](C(=O)N[C@@H](CCCCN)C(=O)N[C@@H](CCCNC(=N)N)C(=O)N[C@@H](CCCCN)C(=O)N[C@@H](CCCNC(=N)N)C(=O)N[C@@H](CCC(N)=O)C(=O)N[C@@H](CCC(N)=O)C(N)=O)[C@@H](C)CC)[C@@H](C)CC)[C@@H](C)O)[C@@H](C)O)C(C)C)C(C)C is reported as 35.1 ± 2 µM (MCF7 vector control (FAP-negative); cell viability, MTT; 72 h).
CC[C@@]1(O)C(=O)OCc2c1cc1n(c2=O)Cc2cc3cc(OC(=O)CCCC(=O)NCC(=O)N[C@@H](Cc4ccccc4)C(=O)N[C@@H](Cc4ccccc4)C(=O)N[C@@H](Cc4ccc(O)cc4)C(=O)NCCSSCCNC(=O)CCC(=O)N[C@@H](CCC(=O)O)C(=O)N[C@@H](CCCNC(=N)N)C(=O)NCC(=O)N[C@@H](CC(=O)O)C(=O)O)ccc3nc2-1 gave a penetration depth of about 50 µm (HepG2 spheroids; confocal microscopy; 100 µM, 6 h).
For C=C1C(=O)O[C@H]2[C@H]1CCC(C)=C1[C@H](OC(=O)c3cn[nH]c3-c3ccccc3)C[C@@](C)(O)[C@@H]12, the CC50 was 9.5 µM (M9-ENL1 leukaemia cells; annexin V/7-AAD flow cytometry; 24 h, 5% human plasma).
CCOC(=O)c1ccc(NC(=S)Nc2ccc3c(c2)C(C)(C)CC(C)(C)S3)cc1 — result for “maximum growth inhibition”: 56.5 ± 14.6% (CAKI-1; MTS; range over 1 to 12.5 µM, 48 h).

Some of these lines once more:
The SILAC ratio of CC(C)CC(O)(CC(C)C)c1cn(C(=O)N2CCCC2)nn1 is reported as 4.07 ± 0.3 (mouse T-cells; N-terminal labeled proteins, N-terminal enrichment proteomics, item: S100A4; 1 nM, 6 h; relative to: DMSO).
CN1c2ccc(OC(=O)Nc3ccncc3)cc2C2(C)CCOC12 (stereo not drawn): “EV size distribution” “no effect” (donor cells; tunable resistive pulse sensing; 20 µM; relative to: DMSO).
CCCCCCCCCCCCCCCC[P+](c1ccccc1)(c1ccccc1)c1ccccc1 gave a GI50 of 0.268 µM (T47D; cell growth or viability, MTT; 72 h).
